Assay results pooled from the literature.
Each line is one published result; not all experiments were run side by side.
Target: Prothrombin (F2, Homo sapiens, UniProt P00734)

| SMILES | assay | conditions | measurement | value |
| --- | --- | --- | --- | --- |
| CC(C)C[C@H](NC(=O)[C@H](CC(N)=O)NC(=O)[C@H](CC(N)=O)NC(=O)[C@@H]1CCCN1C(=O)[C@H](Cc1c[nH]c2ccccc12)NC(=O)[C@H](CC(N)=O)NC(=O)[C@@H](N)CC(C)C)C(=O)N[C@@H](CCC(=O)O)C(=O)NCC(=O)N[C@@H](CCCNC(=N)N)C(=O)N[C@@H](CC(=O)O)C(=O)N1CCC[C@H]1C(=O)N[C@@H](Cc1ccc(O)cc1)C(=O)N[C@@H](CC(N)=O)C(=O)N[C@@H](CCCNC(=N)N)C(=O)O | binding, double-filter binding | 1 h, room temperature | Kd | 160 nM |
| CC(C)[C@H](NC(=O)COCC(=O)NCCCOCCOCCOCCCNC(=O)CCCC[C@@H]1SC[C@@H]2NC(=O)N[C@@H]21)C(=O)NC(c1ccc(C(=N)N)cc1)P(=O)(Oc1ccccc1)Oc1ccccc1 (stereo partly drawn) | enzyme activity, inhibitor, fluorescence |  | IC50 | 280 nM |
| O=C(N[C@@H](Cc1ccccc1)C(=O)CCl)OCc1ccccc1 |  |  | Ki | > 100000 nM |
| CSCC[C@H](NC(=O)[C@@H](N)Cc1ccc(O)cc1)C(=O)N[C@@H](CO)C(=O)N[C@@H](Cc1ccccc1)C(=O)N[C@H](C(=O)N[C@@H](CCCNC(=N)N)C(=O)N[C@@H](CCCNC(=N)N)C(=O)N[C@H](C(=O)N[C@@H](CCC(=O)O)C(=O)N[C@@H](CO)C(=O)N[C@@H](CC(=O)O)C(=O)N[C@@H](CCCCN)C(=O)N[C@@H](CC(C)C)C(=O)N[C@@H](Cc1c[nH]cn1)C(=O)N[C@@H](CO)C(=O)O)[C@@H](C)O)[C@@H](C)O | binding, double-filter binding | 1 h, room temperature | Kd | 310 nM |
| CC[C@H](C)[C@H](NC(=O)[C@@H]1CSSC[C@H](NC(=O)[C@H](Cc2ccc(O)cc2)NC(=O)CNC(C)=O)C(=O)N[C@@H](CO)C(=O)N[C@@H](CCCNC(=N)N)C(=O)N[C@@H](CO)C(=O)N[C@@H](Cc2ccc(O)cc2)C(=O)N2CCC[C@H]2C(=O)N2CCC[C@H]2C(=O)N[C@@H](C(C)C)C(=O)N1)C(=O)N1CCC[C@H]1C(=O)N[C@@H](CC(=O)O)C(=O)O | enzyme activity, inhibitor |  | Ki | 434000 nM |
| CC[C@H](C)[C@H](NC(=O)[C@@H]1CCCN1C(=O)[C@H](CCC(=O)O)NC(=O)[C@H](CCSC)NC(=O)CNC(=O)[C@H](CC(N)=O)NC(=O)CNC(=O)CNC(=O)[C@H](CCC(=O)O)NC(=O)CNC(=O)[C@H](CCCNC(=N)N)NC(=O)[C@H](CCC(N)=O)NC(=O)[C@H](Cc1ccc(O)cc1)NC(=O)[C@H](CC(C)C)NC(=O)[C@H](CCCCN)NC(=O)[C@@H]1CCCN1C(=O)[C@H](CCC(N)=O)NC(=O)[C@H](C)NC(=O)[C@@H](NC(=O)[C@H](CCC(=O)O)NC(=O)[C@H](C)NC(=O)[C@H](CCC(=O)O)NC(=O)[C@@H](NC(=O)[C@@H]1CCCN1C(=O)[C@@H](N)CCCCN)C(C)C)C(C)C)C(=O)N1CCC[C@H]1C(=O)N[C@@H](CCC(=O)O)C(=O)N[C@@H](CC(=O)O)C(=O)N[C@@H](Cc1ccc(OS(=O)(=O)O)cc1)C(=O)N[C@@H](CC(C)C)C(=O)N[C@@H](CC(N)=O)C(=O)N[C@@H](CCC(=O)O)C(=O)N[C@@H](C)C(=O)N[C@@H](CC(C)C)C(=O)N[C@@H](CC(N)=O)C(=O)N[C@@H](C)C(=O)O | enzyme activity, inhibitor, absorbance | pH 8 | Ki | 0.01 nM |
| CC[C@H](C)[C@H](NC(=O)[C@@H]1CSSC[C@H](NC(=O)[C@H](Cc2ccc(O)cc2)NC(=O)CN)C(=O)N[C@@H](CO)C(=O)N[C@@H](CCCNC(=N)N)C(=O)N[C@@H](CO)C(=O)N[C@@H](Cc2ccc(O)cc2)C(=O)N2CCC[C@H]2C(=O)N2CCC[C@H]2C(=O)N[C@@H](C(C)C)C(=O)N1)C(=O)N1CCC[C@H]1C(=O)N[C@@H](CC(=O)O)C(N)=O | enzyme activity, inhibitor |  | Ki | 258000 nM |
| COC(=O)C[C@H](NC(=O)C(NC(=O)OCc1ccccc1)C(C)C)C(=O)CF (stereo partly drawn) | inhibitor |  | Ki | > 200000 nM |
| CC[C@H](C)[C@H](NC(=O)[C@@H]1CCCN1C(=O)[C@H](CCC(=O)O)NC(=O)[C@H](CCSC)NC(=O)CNC(=O)[C@H](CC(N)=O)NC(=O)CNC(=O)CNC(=O)[C@H](CCC(=O)O)NC(=O)CNC(=O)[C@H](CCCNC(=N)N)NC(=O)[C@H](CCC(N)=O)NC(=O)[C@H](Cc1ccc(O)cc1)NC(=O)[C@H](CC(C)C)NC(=O)[C@H](CCCCN)NC(=O)[C@@H]1CCCN1C(=O)[C@H](CCC(N)=O)NC(=O)[C@H](C)NC(=O)[C@@H](NC(=O)[C@H](CCC(=O)O)NC(=O)[C@H](C)NC(=O)[C@H](CCC(=O)O)NC(=O)[C@@H](NC(=O)[C@@H]1CCCN1C(=O)[C@@H](N)CCCCN)C(C)C)C(C)C)C(=O)N1CCC[C@H]1C(=O)N[C@@H](CCC(=O)O)C(=O)N[C@@H](CC(=O)O)C(=O)N[C@H](C(=O)N[C@@H](CC(C)C)C(=O)N[C@@H](CC(N)=O)C(=O)N[C@@H](CCC(=O)O)C(=O)N[C@@H](C)C(=O)N[C@@H](CC(C)C)C(=O)N[C@@H](CC(N)=O)C(=O)N[C@@H](C)C(=O)O)C(C)C | enzyme activity, inhibitor, absorbance | pH 8 | Ki | 0.0282 nM |
